Published values from different studies.
Protocols differ between the studies behind these lines. Numbers after ± are the reported error. Converted amounts (≈) assume the structure as drawn.

SMILES	organism	assay	system	conditions	scale	measurement	result
CN(C)c1cc(CNCC2CCCCC2)c(O)c2c1C[C@H]1C[C@H]3[C@H](N(C)C)C(O)=C(C(N)=O)C(=O)[C@@]3(O)C(O)=C1C2=O	Streptococcus pneumoniae		ATCC 700905, Tet M ribosome protection			MIC	< 0.06 µg/mL
C[C@@H](c1ccn(Cc2ccc(F)cc2F)n1)[C@](O)(Cn1cnnn1)c1ccc(F)cc1F	Candida tropicalis	growth, broth microdilution	2718	24 h, 30 °C, ≥50% inhibition		MIC	< 0.008 µg/mL
COc1cc(/C=C/c2cc(/C=C/c3ccc(O)c(OC)c3)on2)ccc1O	Spodoptera frugiperda	cell growth or viability, MTT	Sf9	100 µM, 72 h		inhibition	70.6%
CN(C)c1cc(CNc2ccccc2)c(O)c2c1C[C@H]1C[C@H]3[C@H](N(C)C)C(O)=C(C(N)=O)C(=O)[C@@]3(O)C(O)=C1C2=O	Streptococcus pneumoniae	microbial growth, broth dilution				MIC	2 µg/mL (≈ 3.55 µM)
CC[C@H](C)[C@H](NC(=O)[C@H](CCCCNC(=N)N)NC(=O)[C@H](CC(N)=O)NC(=O)[C@H](CC(C)C)NC(=O)[C@H](Cc1ccccc1)NC(=O)[C@H](CCCCNC(=N)N)NC(=O)[C@H](CCCCNC(=N)N)NC(=O)[C@H](CC(C)C)NC(=O)[C@H](CC(C)C)NC(=O)[C@H](CCCCNC(=N)N)NC(=O)[C@H](CCCCNC(=N)N)NC(=O)[C@H](CC(C)C)NC(=O)CNC(C)=O)C(=O)N[C@@H](CCCCNC(=N)N)C(=O)N[C@@H](CCCCNC(=N)N)C(N)=O	all bacteria tested					geometric mean MIC	4.42 µM
Nc1cc2nc(-c3ccc(F)c(F)c3)cn2cn1	Trypanosoma cruzi		3T3 host cells, Tulahuen beta-galactosidase	6 days		EC50	> 20000 nM
Oc1cc(O)cc(Oc2c(O)cc(O)c3c2Oc2c(O)cc4oc5c(Oc6cc(O)cc(O)c6)c(O)cc(O)c5c4c2O3)c1	Porcine epidemic diarrhea virus	RT-qPCR, refers to: ORF3 RNA	Vero	50 µM, 24 h post-infection	reference: vehicle	viral RNA level	30 to 40%
C=C(C)[C@@H]1CC[C@]2(C(=O)N3CCN(C)CC3)CC[C@]3(C)[C@H](CC[C@@H]4[C@@]5(C)CCCNC(C)(C)[C@@H]5CC[C@]43C)[C@@H]12	Human cytomegalovirus	cytopathic effect	HFF, AD169			EC90	> 30 µM
COc1ccccc1NC(=O)OC1C(C)C(OC)C=COC2(C)Oc3c(C)c(O)c4c(c3C2=O)C2=NC3(CCN(CC(C)C)CC3)NC2=C(NC(=O)C(C)=CC=CC(C)C(O)C(C)C(O)C1C)C4=O (stereo not drawn)	Mycobacteroides abscessus		ATCC 19977	CAMHB		IC50	0.018 µM
CN(C)c1cc(CNCc2ccncc2)c(O)c2c1C[C@H]1C[C@H]3[C@H](N(C)C)C(O)=C(C(N)=O)C(=O)[C@@]3(O)C(O)=C1C2=O	Streptococcus pneumoniae		ATCC 700905, Tet M ribosome protection			MIC	2 µg/mL (≈ 3.46 µM)
COc1ccc(Nc2c(C#N)cnc3ccc(Cl)cc23)cc1	Trypanosoma cruzi	growth	Y, epimastigote	72 h		IC50	19.5 ± 2.5 µM
C[C@@H](c1ccn(Cc2ccc(F)c(F)c2)n1)[C@](O)(Cn1cnnn1)c1ccc(F)cc1F	Candida tropicalis	growth, broth microdilution	2718	24 h, 30 °C, ≥50% inhibition		MIC	< 0.008 µg/mL
CCCCCc1ccc2c(c1O)C(c1ccc(OC)c(OC)c1OC)OC2=O (stereo not drawn)	Naegleria fowleri	parasite growth, resazurin		48 h		IC50	7.79 µM
Nc1ncnc2c1c(-c1ccc(F)cc1)cn2[C@H]1C[C@H](O)[C@@H](CO)O1	Trichomonas vaginalis	resorufin	G3, metronidazole-sensitive	24 h + 2 h, 2% O2		EC50	800 ± 86 nM
CC(C)(C)NCC(SS(=O)(=O)O)c1ccccc1 (stereo not drawn)	Schistosoma mansoni		mice	oral, 400 mg/kg single dose, 21 days post-infection	reference: vehicle	female worm burden reduction	95%

Excerpt of the above:
SMILES	organism	assay	system	conditions	scale	measurement	result
CC(C)(C)NCC(SS(=O)(=O)O)c1ccccc1 (stereo not drawn)	Schistosoma mansoni		mice	oral, 400 mg/kg single dose, 21 days post-infection	reference: vehicle	female worm burden reduction	95%
